Measured values from different studies.

CCNC(=O)[C@@H]1CCCN1C(=O)[C@H](CCCNC(=N)N)NC(=O)[C@H](CC(C)C)NC(=O)[C@@H](CC(C)C)NC(=O)[C@H](Cc1ccc(O)cc1)NC(=O)[C@H](CO)NC(=O)[C@H](Cc1c[nH]c2ccccc12)NC(=O)[C@H](Cc1c[nH]cn1)NC(=O)[C@@H]1CCC(=O)N1  half-life (male Sprague-Dawley rat, plasma; subcutaneous, 12.5 mg/kg, single dose): 18.4 h
COC(=O)c1ccc2c(c1)NC(=O)/C2=C(\Nc1ccc2c(c1)CCN2C(=O)CN1CCOCC1)c1ccccc1  half-life (Sprague-Dawley rat, plasma; intravenous, 2 mg/kg): 1.3 h
Cc1cccc(Cn2ncc3c4cc(F)c(CN(C)C)cc4n(C)c3c2=O)n1  half-life (rat, plasma; oral, 10 mg/kg): 9.9 h
Cc1cc(/C=C/C#N)cc(C)c1Oc1nc(NC2CCN(Cc3ccc(P(C)(C)=O)cc3)CC2)nc2ccsc12  half-life (male Sprague-Dawley rat, plasma; oral, 10 mg/kg): 1.32 h
COCCCN1CCc2c(Cc3ccc(Cl)cc3)[nH]c3c(OC(F)F)ccc(c23)C1=O  half-life (male Sprague-Dawley rat, blood; intravenous, 2.5 mg/kg): 1.99 h
CCCN(c1ccc(C(=O)NCCC(=O)O)cc1)S(=O)(=O)c1cc(C)c(-c2ccc(C(C)(C)C)cc2)c(C)c1  half-life (rat, plasma; intravenous, 2 mg/kg): 1.5 h
Cc1ccc(OCC(=O)N(Cc2cccs2)c2ccn[nH]2)cc1  half-life (female Sprague-Dawley rat, plasma; oral, 30 mg/kg, single dose): 2.15 h
Cc1nc(N[C@@H](C)c2ccc(-c3nc(C4CC4)no3)cc2)c2cc(C)oc2n1  half-life (rat, plasma; oral, 10 mg/kg): 9.7 h
C[Si](C)(C)C[C@H](CN)CC(=O)O  half-life (male Sprague-Dawley rat, plasma; oral, 100 mg/kg, single dose): 2.58 h
Nc1nc(Cl)nc2c1ncn2Cc1cc(OCC(F)F)cc(OC(F)F)c1  half-life (Sprague-Dawley rat, plasma; oral, 5 mg/kg): 7.92 h
N=C(N)NCCC[C@H](NC(=O)[C@@H]1CCCN1C(=O)[C@H](Cc1ccccc1)NC(=O)[C@@H]1CCCN1C(=O)[C@H](Cc1c[nH]cn1)NC(=O)[C@@H](N)Cc1ccccc1)C(=O)O  half-life (male Sprague-Dawley rat, plasma; intravenous, 10 mg/kg, single dose): 0.113 h
Cn1cc(-c2cc(N3CCCS3(=O)=O)ccc2N[C@H]2CC[C@H](C)CC2)c2cc[nH]c2c1=O  half-life (Sprague-Dawley rat, plasma; oral, 3 mg/kg): 2.06 h
CSCOC1C(=O)C2(C)C(OCSC)CC3OCC3(OC(C)=O)C2C(OC(=O)c2ccccc2)C2(O)CC(OC(=O)C(O)C(C=C(C)C)NC(=O)OC(C)(C)C)C(C)=C1C2(C)C (stereo not drawn)  half-life (female Sprague-Dawley rat, plasma; intravenous, 2 mg/kg): 6.1 h
O=C(N[C@@H](CC1CCCCC1)C(=O)N[C@@H](C[C@H]1CCNC1=O)C(=O)C(=O)NC1CC1)OCc1cccc(Cl)c1  half-life (female Sprague-Dawley rat, plasma; oral, 10 mg/kg): 10.7 h
COc1ccc(COc2c(OC)ccc3c2C[C@@H](C(=O)O)N(c2nc4ccc(F)cc4o2)C3)cn1  half-life (male Sprague-Dawley rat, plasma; intravenous, 1 mg/kg): 2.3 h
O=C(Nc1nc2cc(C(F)(F)F)cc(NC3CC3)n2n1)c1cccnc1  half-life (male Sprague-Dawley rat, plasma; oral, 5 mg/kg): 5.2 h
CC12CC3CC(C)(C1)CC(NC(=O)Nc1ccc(C(=O)N4CCCC(C(N)=O)C4)cc1)(C3)C2 (stereo not drawn)  half-life (Sprague-Dawley rat, plasma; oral, 10 mg/kg): 2.93 h
Cc1cc(/C=C2\CN(C(C)C)C/C(=C\c3cc(C)c(O)c(C)c3)C2=O)cc(C)c1O  half-life (female Sprague-Dawley rat, plasma; intravenous, 20 mg/kg): 2.49 h
CC(C)(C)C(=O)Nc1ccc2[nH]c(CN3CCC(N(CCCN4CCOCC4)CC4OC(n5cnc6c(N)ncnc65)C(O)C4O)CC3)nc2c1 (stereo not drawn)  half-life (male Sprague-Dawley rat, plasma; intraperitoneal, 20 mg/kg): 1.93 h
COc1ccc(S(=O)(=O)N2CCc3ccccc3C2)cc1N1CCN(C(=O)c2ccc(F)cc2C(F)(F)F)CC1  half-life (rat, brain; intravenous, 10 mg/kg, single dose): 0.47 h
C[Si]1(C)CNC(=O)c2ccccc21  half-life (rat, plasma; oral, 5 mg/kg, single dose): 2.8 h
NC(COc1ccccc1C(F)(F)F)c1ccccc1 (stereo not drawn)  half-life (male Sprague-Dawley rat, serum; intravenous, 5 mg/kg): 3.2 h
CC1(C)CNC(=O)c2ccccc21  half-life (rat, plasma; intravenous, 1 mg/kg, single dose): 2 h
Cn1cc(-c2cc(N3CCCCS3(=O)=O)ccc2N[C@H]2CC[C@H](C)CC2)c2cc[nH]c2c1=O (stereo in doubt)  half-life (Sprague-Dawley rat, plasma; intravenous, 1 mg/kg): 1.06 h
CNC(=O)N[C@]1(C)CCC[C@@]2(C)C3CC[C@@]4(C)C[C@]3(CCC21)CC4=O (single isomer, unassigned)  half-life (male Sprague-Dawley rat, plasma; intravenous, 2 mg/kg): 0.591 h
C[Si]1(C[C@@H](CN)CC(=O)O)CCCC1  half-life (male Sprague-Dawley rat, plasma; oral, 100 mg/kg, single dose): 2.62 h
Cc1cc(N)nc(CC2CNCC2OCCNCC(F)(F)c2cccc(F)c2)c1 (stereo not drawn)  half-life (rat, plasma; intravenous, 1 mg/kg): 7.5 h
CC12CC3CC(C)(C1)CC(NC(=O)Nc1ccc(C(=O)N4CCC[C@H](C(N)=O)C4)cc1F)(C3)C2  half-life (Sprague-Dawley rat, plasma; intravenous, 10 mg/kg): 6.25 h
CC(=O)Oc1c2c(c3ccc4c(c3c1OC(C)=O)C=CC(=O)C4(C)C)OC[C@@H]2C  half-life (female Sprague-Dawley rat, serum; intravenous, 10 mg/kg): 1.82 h
COc1ccc2c(c1OCc1ccccc1)C[C@@H](C(=O)O)N(c1nc3ccc(F)cc3o1)C2  half-life (male Sprague-Dawley rat, plasma; intravenous, 1 mg/kg): 3.5 h
CN1CCN(c2ccc(Nc3ncc(Cl)c(Nc4ccccc4P(C)(C)=O)n3)cc2Br)CC1  half-life (male Sprague-Dawley rat, plasma; oral, 25 mg/kg): 15.3 h
COc1cc2ncnc(Oc3ccc(Nc4nccc5[nH]cc(-c6ccc(F)cc6)c(=O)c45)cc3F)c2cc1OC  half-life (male Sprague-Dawley rat, plasma; oral, 10 mg/kg): 26.7 h
N#Cc1cnc2cc(OCC3CCNCC3)c(F)cc2c1Nc1cc(F)c(OCc2cccc(Cl)n2)cc1Cl  half-life (male Sprague-Dawley rat, plasma; oral, 30 mg/kg): 6.7 h

A few entries again:
COCCCN1CCc2c(Cc3ccc(Cl)cc3)[nH]c3c(OC(F)F)ccc(c23)C1=O  half-life (male Sprague-Dawley rat, blood; intravenous, 2.5 mg/kg): 1.99 h
CCCN(c1ccc(C(=O)NCCC(=O)O)cc1)S(=O)(=O)c1cc(C)c(-c2ccc(C(C)(C)C)cc2)c(C)c1  half-life (rat, plasma; intravenous, 2 mg/kg): 1.5 h
Cc1ccc(OCC(=O)N(Cc2cccs2)c2ccn[nH]2)cc1  half-life (female Sprague-Dawley rat, plasma; oral, 30 mg/kg, single dose): 2.15 h
Cc1nc(N[C@@H](C)c2ccc(-c3nc(C4CC4)no3)cc2)c2cc(C)oc2n1  half-life (rat, plasma; oral, 10 mg/kg): 9.7 h
C[Si](C)(C)C[C@H](CN)CC(=O)O  half-life (male Sprague-Dawley rat, plasma; oral, 100 mg/kg, single dose): 2.58 h
